Results gathered from unrelated publications.
Lines come from different studies, so protocols differ. Numbers after ± are the reported error.

SMILES | test | test system | conditions | scale | quantity | result
Cc1ccc(OCC(=O)O)cc1 | – | Sprague-Dawley rat, male, plasma | oral gavage, 30 mg/kg of parent drug | baseline: compound over parent drug | AUC(0-last) ratio | 2380
CCCC[C@H](NC(=O)CNC(=O)CNC(=O)CN1CCN(CC(=O)O)CCN(CC(=O)O)CCN(CC(=O)O)CC1)C(=O)N[C@H]1CC(=O)NCCCC[C@@H](C(N)=O)NC(=O)[C@H](Cc2c[nH]c3ccccc23)NC(=O)[C@H](CCCNC(=N)N)NC(=O)[C@@H](Cc2ccccc2)NC(=O)[C@H](Cc2c[nH]cn2)NC1=O [gallium-67 labelled] | – | female C57 mice, B16/F1 melanoma | intravenous, 0.037 MBq, 2 h | baseline: tumour over kidney | tumour to tissue ratio | 3.01
Cn1c(=O)oc2ccc(-c3ccc(CC(C#N)NC(=O)C4CNCCCO4)c(F)c3)cc21 (stereo not drawn) | item: skin exfoliation | human | 40 mg single dose, fasted | – | subjects with TEAE | 0%
COc1cc(-c2nc3ccccc3s2)cc(CN2CCN(CC(=O)OC(C)(C)C)CCN(CC(=O)OC(C)(C)C)CC2)c1O | UV-Vis pH titration | – | 25 °C, ionic strength 0.1 M NaCl | – | pKa1 | 3.3
C=CCc1ccc(O)c(-c2cc(CC=C)ccc2OCCCCCCCCCC[P+](c2ccccc2)(c2ccccc2)c2ccccc2)c1 | – | C57BL/6 mouse, non-tumour-bearing | dose not given, day 31 | – | serum AST | 320 ± 37 IU/L
CC(C)C[C@H](NC(=O)C[C@H](O)[C@H](CC(C)C)NC(=O)[C@H](Cc1c[nH]cn1)NC(=O)CNC(=O)[C@@H](NC(=O)[C@H](C)NC(=O)[C@H](Cc1c[nH]c2ccccc12)NC(=O)[C@H](CCC(N)=O)NC(=O)[C@@H](Cc1ccccc1)NC(=O)CCNC(=O)CCNC(=O)CN1CCN(CC(=O)O)CCN(CC(=O)O)CCN(CC(=O)O)CC1)C(C)C)C(N)=O [lutetium-177 labelled] | MIRD | mouse PC-3 xenograft, kidneys | intravenous, 50 MBq, with PA | – | absorbed dose | 3.7 Gy
CC/C=C\C/C=C\C/C=C\C/C=C\C/C=C\CCCCOC(CC)C(=O)O (stereo not drawn) | [14C] label | Wistar rat, blood | dose not given, 3 day | – | radioactivity concentration | not detected
C[Si](C)(C)C[C@@H](CN)CC(=O)O | neuromuscular coordination | Wistar rat male | oral, 300 mg/kg, 1 h | – | performance time | 180 s
COc1cc(OC)cc(C2=C3C(C)=C(I)C(C)=[N+]3[B-](F)(F)n3c(/C=C/c4c[nH]c5ccccc45)c(I)c(C)c32)c1 | – | DMSO | – | – | absorption maximum | 636 nm
COc1ccc(-c2ccn(CC[C@](C)(C(=O)NO)S(C)(=O)=O)c(=O)c2)c(F)c1 | – | CF-1 mouse, female | subcutaneous, 18.75 mg/kg | – | free AUC | 1580 ± 320 ng·h/mL
CC(C)C(=O)NC1CC=C(c2cc3c(Nc4cc5ncsc5cc4F)ncnc3s2)CC1 (racemic) | – | human liver microsomes | 1 µM | – | intrinsic clearance | 26 mL/min/g protein
Nc1ncnc2c1nc(-n1nnc3c1CCC1C(CO)C1CC3)n2C1OC(CO)C(O)C1O (mixture of isomers) | – | methanol | red edge of spectrum | – | second excitation maximum | 309 nm
CC#N.[Ru+2].c1ccc(-c2cccc(-c3ccccn3)n2)nc1.c1ccc(-c2ccccn2)nc1 | – | water | 470 nm light | – | photosubstitution quantum yield | 0.0125
CC(=O)N[C@@H](CCCCN)C(=O)N[C@@H](CO)C(=O)NCC(=O)N[C@@H](CO)C(=O)NCC(=O)N[C@@H](CCC(N)=O)C(=O)N[C@@H](CCC(N)=O)C(=O)N[C@@H](CCCCN)C(=O)N[C@@H](Cc1ccccc1)C(=O)N[C@@H](CCC(N)=O)C(=O)N[C@@H](Cc1ccccc1)C(=O)N[C@@H](CCC(N)=O)C(=O)N[C@@H](Cc1ccccc1)C(=O)N[C@@H](CCC(=O)O)C(=O)N[C@@H](CCC(N)=O)C(=O)N[C@@H](CCC(N)=O)C(N)=O | negative-stain TEM | 1× PBS | 0.2 mM | – | nanofiber width | 8.51 ± 1.12 nm
Cc1cc2c(cc1C1(c3ncc(C(=O)O)cn3)CC1)C(C)(C)CCC2(C)C | – | Sprague-Dawley rat, male | oral, 100 mg/kg, 1 h, sesame oil vehicle | – | blood cholesterol | 99 ± 7.5 mg/dL
CCCC(CCC)NC(=O)c1ccc(OC2OC(C(=O)O)C(O)C(O)C2O)c(O)c1 (stereo not drawn) | – | male Sprague-Dawley rats, plasma | oral, 50 mg/kg of parent drug | baseline: 50 over 20 mg/kg dose | AUC(0-last) ratio | 1.86
CC(C)CCCC(C)CCCC(C)CCO[C@@H]1O[C@H](CO)[C@@H](O[C@H]2O[C@H](CO)[C@@H](O)[C@H](O)[C@H]2O)[C@H](O)[C@H]1O (stereo partly drawn) | dynamic surface tension | – | 0.0036 mmol/L | – | equilibrium surface tension | 41.4 mN/m
COc1ccc(/C=C/c2ccc(-c3ccc(C)cn3)nc2)cc1 | TCSPC | benzene | – | – | fluorescence lifetime | 0.75 ns
COc1cc(NC(C)=O)c2c(c1O)-c1c(OC)c(OC)cc3c1C(C2)N(C)CC3 (stereo not drawn) | – | rat lung homogenate | 5 µg/mL, 24 h, room temperature, post-preparative storage | – | remaining compound | 86.6 ± 1.3%
[11CH3]c1ccc2nc(C3CCC3)n(-c3ccc4[nH]ncc4c3)c2n1 | – | human male, breasts | extrapolated from mouse biodistribution | – | absorbed radiation dose | 2 µSv/MBq
COc1cc2ncnc(Oc3ccc4c(C(N)=O)c(C)oc4c3)c2cc1OC | item: Cmax | human, severe renal impairment | oral | baseline: normal renal function | decrease in exposure | ~47%
C[Si]1(C[C@H](CN)CC(=O)O)CCCC1 | neuromuscular coordination | Wistar rat male | oral, 30 mg/kg, 3 h | – | performance time | 180 s
N=C(N)NCCC[C@@H]1NC(=O)[C@H](Cc2c[nH]c3ccccc23)NC(=O)[C@@H](CC2CCCCC2)NC(=O)[C@@H]2CCCN2C(=O)[C@@H](NC(=O)CCc2ccccc2)CCCNC1=O | – | C57BL/6J mice, brain | oral, 1 mg/kg, two-compartment model | – | apparent peripheral volume (V2/F) | < 0.001 µg/(ng/g)
COc1cc(C)c(Cc2ccc(O)cc2)cc1[C@@H]1S[C@H](CO)[C@@H](O)[C@H](O)[C@H]1O | – | Japanese T2DM patients, plasma | 1 mg luseogliflozin, day 7, once daily | – | Tmax | 2.44 ± 1.32 h
CCCC(CCC)NC(=O)c1ccc(OS(=O)(=O)O)c(OC)c1 | – | male Sprague-Dawley rats, plasma | oral, 200 mg/kg of parent drug | baseline: 200 over 20 mg/kg dose | AUC(0-last) ratio | 12.8
CC(=O)OC[C@H]1O[C@@H](Sc2sc(C(=O)c3ccc(C)cc3)c(N)c2-c2nc3ccccc3s2)[C@H](OC(C)=O)[C@@H](OC(C)=O)[C@H]1OC(C)=O | – | DMEM | 72 h, coxsackievirus B4 assay host cells | – | maximum nontoxic concentration | 100 µg/mL
NS(=O)(=O)c1ccc(N2N=C(C(F)(F)F)CC2c2ccc(F)cc2F)cc1 (stereo not drawn) | – | Beagle dog, both sexes, plasma | oral, 4 mg/kg, single dose | – | AUC(0-t) | 46700 ± 35300 ng·h/mL

Repeated from above:
SMILES | test | test system | conditions | scale | quantity | result
CCCC[C@H](NC(=O)CNC(=O)CNC(=O)CN1CCN(CC(=O)O)CCN(CC(=O)O)CCN(CC(=O)O)CC1)C(=O)N[C@H]1CC(=O)NCCCC[C@@H](C(N)=O)NC(=O)[C@H](Cc2c[nH]c3ccccc23)NC(=O)[C@H](CCCNC(=N)N)NC(=O)[C@@H](Cc2ccccc2)NC(=O)[C@H](Cc2c[nH]cn2)NC1=O [gallium-67 labelled] | – | female C57 mice, B16/F1 melanoma | intravenous, 0.037 MBq, 2 h | baseline: tumour over kidney | tumour to tissue ratio | 3.01
NS(=O)(=O)c1ccc(N2N=C(C(F)(F)F)CC2c2ccc(F)cc2F)cc1 (stereo not drawn) | – | Beagle dog, both sexes, plasma | oral, 4 mg/kg, single dose | – | AUC(0-t) | 46700 ± 35300 ng·h/mL
